Published values gathered from unrelated publications.
Numbers after ± are the reported error.
Organism: Plasmodium falciparum

| Structure (SMILES) | test | test system | conditions | IC50 |
| --- | --- | --- | --- | --- |
| COC1=CC(c2ccc[nH]2)=NC12OC(C)CC1CCCCCCCc3ccc([nH]3)C12 (stereo not shown) | parasite growth | 7G8 | drug-resistant strain, blood stage | 1.5 nM |
| COc1ccc2c(=O)c3cc(OS(=O)(=O)C(F)(F)F)ccc3[nH]c2c1 | parasite growth, SYBR Green I fluorescence | 7G8, multidrug resistant | – | 56.6 nM |
| CCCCc1cc(CN(Cc2ccccn2)Cc2ccccn2)c(O)c(CN(Cc2ccccn2)Cc2ccccn2)c1 | growth, [3H]hypoxanthine incorporation | W2 chloroquine-resistant | 48 h | 394 ± 49 nM |
| N#Cc1c(-c2ccco2)[n+]([O-])c2ccccc2[n+]1[O-] | parasite growth, [3H]hypoxanthine incorporation | K1 chloroquine-resistant | – | 630 ± 180 nM |
| CC(C)(CO)NCC1=C(O)C(=O)c2ccccc2C1=O | parasite growth | W2 | drug-resistant strain, blood stage | 59900 nM |
| CC1=CC(=CNC2CCCCCCC2)N=C1c1ccc[nH]1 | parasite growth | Dd2, chloroquine-resistant | – | > 250 nM |
| O=C1CC2(CCN(c3cc(N4CCN(S(=O)(=O)c5ccc(Cl)s5)CC4)ncn3)CC2)Oc2ccccc21 | parasite growth | W2 | – | 4760 ± 250 nM |
| Cc1ccc(C(C)C)cc1.Cn1ccnc1CNCCNc1ccnc2cc(Cl)ccc12.[Cl-].[Cl][Ru+] | parasite growth, parasite lactate dehydrogenase | D10 chloroquine-sensitive | – | 4530 ± 690 nM |
| CC[C@H](C)[C@@H]1NC(=O)[C@H](CCCCN)NC(=O)[C@H](CCCCN)NC(=O)[C@H](Cc2ccc(O)cc2)NC(=O)[C@H](CC(C)C)NC(=O)[C@@H]2CCCN2C(=O)[C@H](C)NC(=O)CNC(=O)CNC(=O)[C@H](CO)NC(=O)CNC(=O)CNC(=O)[C@H](CO)NC(=O)[C@H](CCC(=O)O)NC(=O)[C@H](CC(C)C)NC(=O)[C@H](CC(C)C)NC(=O)[C@H](CCCNC(=N)N)NC(=O)[C@H](CCCCN)NC(=O)[C@H]([C@@H](C)CC)NC(=O)[C@H]([C@@H](C)CC)NC(=O)[C@H](CCCCN)NC(=O)[C@H](CCCCN)NC(=O)[C@H](Cc2ccc(O)cc2)NC(=O)[C@H](CC(C)C)NC(=O)[C@@H]2CCCN2C(=O)CNC(=O)CNC(=O)[C@@H](NC(=O)CN)CSSC[C@@H](C(N)=O)NC(=O)[C@H](CC(C)C)NC(=O)[C@H](CCCNC(=N)N)NC(=O)[C@H](CCCCN)NC(=O)[C@H]([C@@H](C)CC)NC1=O | parasite growth | 3D7 | 72 h, Albumax II medium, no serum | 4800 ± 100 nM |
| O=C(O)[C@@H]1Cc2c([nH]c3ccccc23)[C@@H](c2ccc(F)cc2Cl)N1 | parasite growth | Dd2 | 72 h | 433 ± 55 nM |
| Clc1ccc(C2=CC(c3ccc[nH]3)=NC2=CNC2CCCCCCC2)cc1 | parasite growth | 7G8, chloroquine-resistant | – | 316 nM |
| CC[C@H](C)[C@@H]1NC(=O)[C@H](CCCCN)NC(=O)[C@H](CCCCN)NC(=O)[C@H](Cc2ccc(O)cc2)NC(=O)[C@H](CC(C)C)NC(=O)[C@@H]2CCCN2C(=O)[C@H](C)NC(=O)CNC(=O)CNC(=O)[C@H](CO)NC(=O)CNC(=O)CNC(=O)[C@H](CO)NC(=O)[C@H](CCCCN)NC(=O)[C@H](CC(C)C)NC(=O)[C@H](CC(C)C)NC(=O)[C@H](CCCCN)NC(=O)[C@H](CCCCN)NC(=O)[C@H]([C@@H](C)CC)NC(=O)[C@H]([C@@H](C)CC)NC(=O)[C@H](CCCCN)NC(=O)[C@H](CCCCN)NC(=O)[C@H](Cc2ccc(O)cc2)NC(=O)[C@H](CC(C)C)NC(=O)[C@@H]2CCCN2C(=O)[C@H](C)NC(=O)CNC(=O)CNC(=O)[C@H](CO)NC(=O)CNC(=O)CNC(=O)[C@H](CO)NC(=O)[C@H](CCC(=O)O)NC(=O)[C@H](CC(C)C)NC(=O)[C@H](CC(C)C)NC(=O)[C@H](CCCCN)NC(=O)[C@H](CCCCN)NC(=O)[C@H]([C@@H](C)CC)NC1=O | parasite growth | 3D7 | 72 h, Albumax II medium, no serum | 3500 ± 400 nM |
| CC1=CC(c2ccc[nH]2)=NC1=CNC1CCCCCCC1 | parasite growth | 7G8, chloroquine-resistant | – | > 250 nM |
| CC[C@H](C)[C@@H]1NC(=O)[C@H](CCCCN)NC(=O)[C@H](CCCCN)NC(=O)[C@H](Cc2ccc(O)cc2)NC(=O)[C@H](CC(C)C)NC(=O)[C@@H]2CCCN2C(=O)[C@H](C)NC(=O)CNC(=O)CNC(=O)[C@H](CO)NC(=O)CNC(=O)CNC(=O)[C@H](CO)NC(=O)[C@H](CCCCN)NC(=O)[C@H](CC(C)C)NC(=O)[C@H](CC(C)C)NC(=O)[C@H](CCCCN)NC(=O)[C@H](CCCNC(=N)N)NC(=O)[C@H]([C@@H](C)CC)NC(=O)[C@H]([C@@H](C)CC)NC(=O)[C@H](CCCCN)NC(=O)[C@H](CCCCN)NC(=O)[C@H](Cc2ccc(O)cc2)NC(=O)[C@H](CC(C)C)NC(=O)[C@@H]2CCCN2C(=O)CNC(=O)CNC(=O)[C@@H](NC(=O)CN)CSSC[C@@H](C(N)=O)NC(=O)[C@H](CC(C)C)NC(=O)[C@H](CCCCN)NC(=O)[C@H](CCCNC(=N)N)NC(=O)[C@H]([C@@H](C)CC)NC1=O | parasite growth | 3D7 | 72 h, Albumax II medium, no serum | 3200 ± 200 nM |
| Clc1ccc(C2=CC(c3ccc[nH]3)=NC2=CNC23CC4CC(CC(C4)C2)C3)cc1 | parasite growth | 7G8, chloroquine-resistant | – | 126 nM |
| CC1(c2ccc(F)cc2F)OOC2(CCN(C(=O)c3ccccc3)CC2)OO1 | parasite growth, imaging | 3D7 | 48 h, blood stage | 10.5 nM |
| CC1=CC(=CNC23CC4CC(CC(C4)C2)C3)N=C1c1ccc[nH]1 | parasite growth | Dd2, chloroquine-resistant | – | 170 nM |
| CCCCNCC(O)Cn1c2ccc(Br)cc2c2cc(Br)ccc21 (stereo not shown) | SYBR Green I | 3D7 chloroquine-sensitive | 72 h | 492 ± 100 nM |
| CCc1c(C)[nH]c(C=NC23CC4CC(CC(C4)C2)C3)c1C | parasite growth, SYBR Green I fluorescence | D6, chloroquine-sensitive | – | 33 nM |
| COc1cccc2c(-c3ccc(O)c4c3C[C@@H](C)N[C@@H]4C)c(C)cc(O)c12 | parasite growth, SYBR Green | W2 | 96 h, drug-resistant strain, blood stage | 138 nM |
| CC[C@H](C)[C@@H]1NC(=O)[C@H](CCCCN)NC(=O)[C@H](CCCCN)NC(=O)[C@H](Cc2ccc(O)cc2)NC(=O)[C@H](CC(C)C)NC(=O)[C@@H]2CCCN2C(=O)[C@H](C)NC(=O)CNC(=O)CNC(=O)[C@H](CO)NC(=O)CNC(=O)CNC(=O)[C@H](CO)NC(=O)[C@H](CCC(=O)O)NC(=O)[C@H](CC(C)C)NC(=O)[C@H](CC(C)C)NC(=O)[C@H](CCCCN)NC(=O)[C@H](CCCCN)NC(=O)[C@H]([C@@H](C)CC)NC(=O)[C@H]([C@@H](C)CC)NC(=O)[C@H](CCCCN)NC(=O)[C@H](CCCCN)NC(=O)[C@H](Cc2ccc(O)cc2)NC(=O)[C@H](CC(C)C)NC(=O)[C@@H]2CCCN2C(=O)[C@H](C)NC(=O)CNC(=O)[C@@H]2CSSC[C@H](NC(=O)[C@H](CC(C)C)NC(=O)[C@H](CCCCN)NC(=O)[C@H](CCCCN)NC(=O)[C@H]([C@@H](C)CC)NC1=O)C(=O)N[C@@H](CCCCN)C(=O)N[C@@H](CC(N)=O)C(=O)NCC(=O)N2 | parasite growth | 3D7 | 72 h, 5% serum plus Albumax II | 14400 ± 1300 nM |
| COc1ccc2cc1Oc1cc3c(cc1OC)CCN(C)C3Cc1ccc(cc1)Oc1c(O)c(OC)cc3c1C(C2)N(C)CC3 (stereo not shown) | parasite growth, SYBR Green I | 3D7, INDO and Cam3.1 R539T | – | ≤ 1500 nM |

Some of these lines once more:
| Structure (SMILES) | test | test system | conditions | IC50 |
| --- | --- | --- | --- | --- |
| CC(C)(CO)NCC1=C(O)C(=O)c2ccccc2C1=O | parasite growth | W2 | drug-resistant strain, blood stage | 59900 nM |
| CC[C@H](C)[C@@H]1NC(=O)[C@H](CCCCN)NC(=O)[C@H](CCCCN)NC(=O)[C@H](Cc2ccc(O)cc2)NC(=O)[C@H](CC(C)C)NC(=O)[C@@H]2CCCN2C(=O)[C@H](C)NC(=O)CNC(=O)CNC(=O)[C@H](CO)NC(=O)CNC(=O)CNC(=O)[C@H](CO)NC(=O)[C@H](CCCCN)NC(=O)[C@H](CC(C)C)NC(=O)[C@H](CC(C)C)NC(=O)[C@H](CCCCN)NC(=O)[C@H](CCCCN)NC(=O)[C@H]([C@@H](C)CC)NC(=O)[C@H]([C@@H](C)CC)NC(=O)[C@H](CCCCN)NC(=O)[C@H](CCCCN)NC(=O)[C@H](Cc2ccc(O)cc2)NC(=O)[C@H](CC(C)C)NC(=O)[C@@H]2CCCN2C(=O)[C@H](C)NC(=O)CNC(=O)CNC(=O)[C@H](CO)NC(=O)CNC(=O)CNC(=O)[C@H](CO)NC(=O)[C@H](CCC(=O)O)NC(=O)[C@H](CC(C)C)NC(=O)[C@H](CC(C)C)NC(=O)[C@H](CCCCN)NC(=O)[C@H](CCCCN)NC(=O)[C@H]([C@@H](C)CC)NC1=O | parasite growth | 3D7 | 72 h, Albumax II medium, no serum | 3500 ± 400 nM |
